Results of several laboratories.
A part holds a random share of what one study measured. Values joined by “and” are separate records of one study, mostly repeats; a detail may differ. pIC50: −log10 of the molar value.
Sequence of UniProt Q08345 (whole entry, looked up): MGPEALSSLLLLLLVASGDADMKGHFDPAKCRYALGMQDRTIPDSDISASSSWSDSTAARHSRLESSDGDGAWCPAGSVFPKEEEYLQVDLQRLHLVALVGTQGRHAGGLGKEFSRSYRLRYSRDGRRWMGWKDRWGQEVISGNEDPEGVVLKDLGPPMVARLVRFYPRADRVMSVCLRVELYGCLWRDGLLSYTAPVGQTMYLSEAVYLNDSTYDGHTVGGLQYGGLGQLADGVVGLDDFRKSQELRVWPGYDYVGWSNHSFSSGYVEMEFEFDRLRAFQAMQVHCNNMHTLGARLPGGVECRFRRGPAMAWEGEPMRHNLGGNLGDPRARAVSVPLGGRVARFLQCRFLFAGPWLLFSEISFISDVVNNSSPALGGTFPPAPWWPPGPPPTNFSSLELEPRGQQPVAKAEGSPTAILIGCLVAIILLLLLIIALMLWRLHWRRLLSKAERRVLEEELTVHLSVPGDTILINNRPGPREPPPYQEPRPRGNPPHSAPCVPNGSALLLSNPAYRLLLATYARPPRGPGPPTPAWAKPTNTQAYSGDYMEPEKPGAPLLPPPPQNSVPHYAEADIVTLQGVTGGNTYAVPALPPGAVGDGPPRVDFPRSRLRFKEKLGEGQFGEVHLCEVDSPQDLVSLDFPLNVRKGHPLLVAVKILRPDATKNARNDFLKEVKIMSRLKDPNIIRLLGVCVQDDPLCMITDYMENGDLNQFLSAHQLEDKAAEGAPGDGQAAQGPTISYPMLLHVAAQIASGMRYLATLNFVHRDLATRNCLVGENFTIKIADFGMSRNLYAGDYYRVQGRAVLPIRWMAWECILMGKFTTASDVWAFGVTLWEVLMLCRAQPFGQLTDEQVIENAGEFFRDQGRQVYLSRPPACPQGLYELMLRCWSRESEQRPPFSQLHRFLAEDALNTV
Sequence of UniProt P16234 (whole entry, looked up): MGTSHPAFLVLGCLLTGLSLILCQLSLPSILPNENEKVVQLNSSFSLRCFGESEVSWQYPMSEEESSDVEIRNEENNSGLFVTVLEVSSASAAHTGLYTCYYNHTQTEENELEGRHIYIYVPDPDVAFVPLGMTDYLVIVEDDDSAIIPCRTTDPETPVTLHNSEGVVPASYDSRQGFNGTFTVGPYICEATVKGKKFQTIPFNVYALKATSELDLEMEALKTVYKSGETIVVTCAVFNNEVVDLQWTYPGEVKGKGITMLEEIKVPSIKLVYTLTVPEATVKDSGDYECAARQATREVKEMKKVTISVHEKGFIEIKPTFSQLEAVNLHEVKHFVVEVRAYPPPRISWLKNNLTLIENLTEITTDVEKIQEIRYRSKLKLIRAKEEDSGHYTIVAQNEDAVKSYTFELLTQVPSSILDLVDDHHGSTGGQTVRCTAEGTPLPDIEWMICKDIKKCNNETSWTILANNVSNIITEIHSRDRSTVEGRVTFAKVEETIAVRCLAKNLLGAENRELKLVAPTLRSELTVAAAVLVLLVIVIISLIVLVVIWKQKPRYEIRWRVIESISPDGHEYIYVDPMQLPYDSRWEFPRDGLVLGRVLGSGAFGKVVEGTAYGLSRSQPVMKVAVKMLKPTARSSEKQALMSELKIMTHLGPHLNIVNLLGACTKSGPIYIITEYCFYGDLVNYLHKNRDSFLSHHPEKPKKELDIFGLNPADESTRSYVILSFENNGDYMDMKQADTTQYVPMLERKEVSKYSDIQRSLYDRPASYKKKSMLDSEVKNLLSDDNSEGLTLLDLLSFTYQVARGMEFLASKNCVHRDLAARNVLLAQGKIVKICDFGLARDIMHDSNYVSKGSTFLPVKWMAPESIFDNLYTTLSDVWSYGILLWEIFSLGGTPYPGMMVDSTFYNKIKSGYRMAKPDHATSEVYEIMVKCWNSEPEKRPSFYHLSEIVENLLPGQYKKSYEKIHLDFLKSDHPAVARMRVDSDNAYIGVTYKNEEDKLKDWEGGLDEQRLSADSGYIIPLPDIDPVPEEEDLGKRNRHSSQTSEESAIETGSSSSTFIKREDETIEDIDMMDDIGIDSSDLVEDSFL
Sequence of UniProt P35916 (whole entry, looked up): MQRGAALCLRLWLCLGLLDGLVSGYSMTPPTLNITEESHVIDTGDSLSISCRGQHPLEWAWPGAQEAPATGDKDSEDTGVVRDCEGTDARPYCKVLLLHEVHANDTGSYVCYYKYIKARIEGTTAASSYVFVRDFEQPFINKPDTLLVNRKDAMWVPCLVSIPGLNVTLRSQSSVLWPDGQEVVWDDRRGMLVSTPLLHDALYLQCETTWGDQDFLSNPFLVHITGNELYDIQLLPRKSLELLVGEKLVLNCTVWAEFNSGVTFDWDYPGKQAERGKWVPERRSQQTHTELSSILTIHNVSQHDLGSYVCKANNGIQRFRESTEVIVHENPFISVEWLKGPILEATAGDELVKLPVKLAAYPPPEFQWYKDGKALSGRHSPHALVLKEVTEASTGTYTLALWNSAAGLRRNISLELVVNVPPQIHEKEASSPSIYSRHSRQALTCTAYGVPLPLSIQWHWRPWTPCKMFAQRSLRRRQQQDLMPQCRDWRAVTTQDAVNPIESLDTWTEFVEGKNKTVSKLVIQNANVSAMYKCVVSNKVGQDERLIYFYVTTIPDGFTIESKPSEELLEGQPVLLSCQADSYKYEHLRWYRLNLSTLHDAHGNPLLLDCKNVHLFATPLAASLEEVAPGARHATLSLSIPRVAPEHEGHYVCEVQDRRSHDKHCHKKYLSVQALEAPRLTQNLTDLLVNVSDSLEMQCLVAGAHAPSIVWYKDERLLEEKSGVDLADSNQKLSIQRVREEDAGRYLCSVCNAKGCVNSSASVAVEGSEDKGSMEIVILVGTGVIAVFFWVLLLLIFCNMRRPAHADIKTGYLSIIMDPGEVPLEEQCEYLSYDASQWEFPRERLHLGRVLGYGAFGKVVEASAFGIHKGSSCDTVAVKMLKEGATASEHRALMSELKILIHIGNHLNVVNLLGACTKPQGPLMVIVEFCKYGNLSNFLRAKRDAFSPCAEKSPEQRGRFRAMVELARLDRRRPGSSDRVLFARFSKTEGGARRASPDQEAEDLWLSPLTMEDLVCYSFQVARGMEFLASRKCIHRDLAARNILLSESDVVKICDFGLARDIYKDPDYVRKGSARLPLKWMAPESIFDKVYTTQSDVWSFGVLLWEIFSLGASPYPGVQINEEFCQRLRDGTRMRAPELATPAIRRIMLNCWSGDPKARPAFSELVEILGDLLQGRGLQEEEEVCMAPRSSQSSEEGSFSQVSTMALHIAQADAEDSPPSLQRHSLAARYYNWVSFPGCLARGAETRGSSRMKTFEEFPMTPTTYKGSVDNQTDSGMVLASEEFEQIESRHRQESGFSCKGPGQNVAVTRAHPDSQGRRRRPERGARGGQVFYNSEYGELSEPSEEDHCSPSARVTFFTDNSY

Sample 1 — cell line: U-87 MG; tested at: concentration not given; relative to: DMSO; endpoint: log2 fold change
Structure (SMILES): CCN1/C(=C/C=C2\CCCC(/C=C/C3=[N+](CC)c4ccccc4C3(C)C)=C2NCCCCCCCCN2CCC(Nc3nc4ccccc4n3Cc3ccc(F)cc3)CC2)C(C)(C)c2ccccc21
refers to: ERMN mRNA: -2.45
refers to: RUNX2 mRNA: -1.34
refers to: TP53I3 mRNA: -0.957
refers to: ERAP2 mRNA: -0.947
refers to: TSPAN10 mRNA: -1.86
refers to: SLC38A4 mRNA: -3.44
refers to: ANK1 mRNA: -2.74
refers to: CDCA8 mRNA: -2.24
refers to: TMEM71 mRNA: 2.14
refers to: ARPIN mRNA: -0.971
refers to: FGF14 mRNA: 2.41

Sample 2 — Compound: O=C(Nc1ccccc1)Nc1cccc(Oc2ccc3nccn3n2)c1; observed: enzyme activity; action: inhibitor; technique: radiometric; endpoint: pIC50
Epithelial discoidin domain-containing receptor 1 (DDR1, Homo sapiens, UniProt Q08345): > 6.40 and 6.42
Tyrosine-protein kinase ABL1 (ABL1, Homo sapiens, UniProt P00519): 5.33
Platelet-derived growth factor receptor alpha (PDGFRA, Homo sapiens, UniProt P16234): 6.59
Vascular endothelial growth factor receptor 3 (FLT4, Homo sapiens, UniProt P35916): 6.80

Sample 3 — observed: thermal unfolding; technique: differential scanning fluorimetry; tested at: 5.5 µM; reading: higher = more unfolded; endpoint: SYPRO Orange fluorescence
SMILES: C[C@@H]1CN(c2ccc(-c3cc(C(=O)NCCOCCOCCOCCOCCOCCOCCNC(=O)/C=C/c4[nH]cc(C(=O)N[C@@H](CC(N)=O)c5ccc(F)c(Cl)c5)c4-c4ccc(Cl)cc4F)ccc3F)cc2NC(=O)c2ccc(F)cc2C(F)(F)F)C[C@H](C)N1C
DCAF1: DDB1- and CUL4-associated factor 1 (DCAF1, Homo sapiens, UniProt Q9Y4B6)
Sequence of UniProt Q9Y4B6 (whole entry, looked up): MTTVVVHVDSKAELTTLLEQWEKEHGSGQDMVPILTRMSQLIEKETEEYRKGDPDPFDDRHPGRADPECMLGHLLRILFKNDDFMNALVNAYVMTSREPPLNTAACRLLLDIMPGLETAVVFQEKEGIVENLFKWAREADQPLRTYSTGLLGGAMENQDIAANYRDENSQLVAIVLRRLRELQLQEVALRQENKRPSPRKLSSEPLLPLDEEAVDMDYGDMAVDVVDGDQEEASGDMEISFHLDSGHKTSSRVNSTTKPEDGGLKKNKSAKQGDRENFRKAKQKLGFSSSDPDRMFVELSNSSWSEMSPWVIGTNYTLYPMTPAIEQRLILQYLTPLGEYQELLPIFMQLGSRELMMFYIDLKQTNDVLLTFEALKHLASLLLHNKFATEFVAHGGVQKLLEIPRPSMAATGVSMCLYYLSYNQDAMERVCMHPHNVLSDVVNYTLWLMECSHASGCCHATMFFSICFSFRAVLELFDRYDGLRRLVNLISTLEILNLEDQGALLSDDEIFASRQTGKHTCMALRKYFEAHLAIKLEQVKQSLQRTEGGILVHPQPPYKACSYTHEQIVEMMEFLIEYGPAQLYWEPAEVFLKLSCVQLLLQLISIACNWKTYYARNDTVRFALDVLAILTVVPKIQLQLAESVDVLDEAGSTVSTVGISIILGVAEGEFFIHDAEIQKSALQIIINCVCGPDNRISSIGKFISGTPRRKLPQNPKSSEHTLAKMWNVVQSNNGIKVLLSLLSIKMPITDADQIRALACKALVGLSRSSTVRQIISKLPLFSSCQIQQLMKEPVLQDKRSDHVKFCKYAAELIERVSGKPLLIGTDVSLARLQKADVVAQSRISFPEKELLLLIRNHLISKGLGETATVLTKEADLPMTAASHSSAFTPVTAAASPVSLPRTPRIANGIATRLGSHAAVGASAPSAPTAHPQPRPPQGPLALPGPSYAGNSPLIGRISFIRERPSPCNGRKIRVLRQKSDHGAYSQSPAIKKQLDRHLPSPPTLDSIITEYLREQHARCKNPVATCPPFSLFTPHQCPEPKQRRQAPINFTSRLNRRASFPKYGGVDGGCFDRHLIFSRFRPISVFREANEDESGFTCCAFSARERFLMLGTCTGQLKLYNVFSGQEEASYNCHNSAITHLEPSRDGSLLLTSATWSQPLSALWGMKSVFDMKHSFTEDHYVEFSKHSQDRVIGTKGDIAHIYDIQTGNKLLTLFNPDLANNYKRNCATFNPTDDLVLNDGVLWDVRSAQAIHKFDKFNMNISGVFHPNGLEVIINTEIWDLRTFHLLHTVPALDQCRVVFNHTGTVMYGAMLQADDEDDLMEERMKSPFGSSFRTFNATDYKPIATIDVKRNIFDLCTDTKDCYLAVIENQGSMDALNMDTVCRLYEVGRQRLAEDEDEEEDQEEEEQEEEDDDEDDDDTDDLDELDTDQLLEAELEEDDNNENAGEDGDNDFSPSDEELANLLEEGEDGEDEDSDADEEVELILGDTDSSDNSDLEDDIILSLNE
WDR5: WD repeat-containing protein 5 (WDR5, Homo sapiens, UniProt P61964)
DCAF1; 42 °C: 12800 a.u.
WDR5; 33.8 °C: 13800 a.u.
DCAF1; 31.4 °C: 8830 a.u.
WDR5; 38.2 °C: 13800 a.u.
WDR5; 70.81 °C: 30400 a.u.
WDR5; 55.01 °C: 16800 a.u.
WDR5; 62.41 °C: 15300 a.u.

Single results of other studies
Target: Membrane-associated tyrosine- and threonine-specific cdc2-inhibitory kinase (PKMYT1, Homo sapiens, UniProt Q99640)
Sequence (Q99640 1-499, as in one of the studies): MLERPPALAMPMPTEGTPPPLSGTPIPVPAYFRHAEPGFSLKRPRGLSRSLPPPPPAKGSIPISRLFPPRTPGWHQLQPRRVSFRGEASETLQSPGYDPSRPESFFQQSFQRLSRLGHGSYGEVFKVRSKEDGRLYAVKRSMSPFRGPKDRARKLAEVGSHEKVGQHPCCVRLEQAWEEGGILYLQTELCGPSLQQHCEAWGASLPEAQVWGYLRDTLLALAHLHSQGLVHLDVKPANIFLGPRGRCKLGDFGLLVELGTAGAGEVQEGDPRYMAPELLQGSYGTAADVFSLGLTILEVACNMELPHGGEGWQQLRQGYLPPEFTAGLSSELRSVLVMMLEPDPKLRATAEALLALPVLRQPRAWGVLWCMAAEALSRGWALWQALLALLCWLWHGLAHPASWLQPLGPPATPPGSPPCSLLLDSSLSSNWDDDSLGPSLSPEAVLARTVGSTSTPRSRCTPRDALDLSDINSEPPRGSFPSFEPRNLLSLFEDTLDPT
Cc1ccc(O)c(C)c1-c1cnc2[nH]c(-c3cnc(N4CCC5(CC4)CC(N4CCN(c6ccc7c(c6)C(=O)N(C6CCC(=O)NC6=O)C7=O)CC4)CO5)nc3)cc2c1C#N (mixture of isomers)  inhibition (binding, HTRF; 1.37 nM): 16.2% and 14.2%
Cc1ccc(O)c(C)c1-c1cnc2[nH]c(-c3cnc(N)nc3)cc2c1C#N  NanoBRET signal (target engagement, NanoBRET; 0.46 nM): 29.7 mBU and 26.7 mBU
Cc1ccc(O)c(C)c1-c1cnc2[nH]c(-c3cnc(N4CCC5(CC4)CC(N4CCN(c6ccc(NC7CCC(=O)NC7=O)cc6F)CC4)CO5)nc3)cc2c1C#N (centres unmarked)  DC50 (degrader; MDA-MB-157): 1.1 nM
Cc1ccc(O)c(C)c1-c1cnc2[nH]c(-c3cnc(N4CCC(CCN5CCN(c6ccc(N7CCC(=O)NC7=O)cc6F)CC5)CC4)nc3)cc2c1C#N  inhibition (binding, HTRF; 0.15 nM): -1.08% and -2.61%

Repeated from above (single results of other studies):
Cc1ccc(O)c(C)c1-c1cnc2[nH]c(-c3cnc(N4CCC5(CC4)CC(N4CCN(c6ccc(NC7CCC(=O)NC7=O)cc6F)CC4)CO5)nc3)cc2c1C#N (centres unmarked)  DC50 (degrader; MDA-MB-157): 1.1 nM
Cc1ccc(O)c(C)c1-c1cnc2[nH]c(-c3cnc(N)nc3)cc2c1C#N  NanoBRET signal (target engagement, NanoBRET; 0.46 nM): 29.7 mBU and 26.7 mBU
Cc1ccc(O)c(C)c1-c1cnc2[nH]c(-c3cnc(N4CCC5(CC4)CC(N4CCN(c6ccc7c(c6)C(=O)N(C6CCC(=O)NC6=O)C7=O)CC4)CO5)nc3)cc2c1C#N (mixture of isomers)  inhibition (binding, HTRF; 1.37 nM): 16.2% and 14.2%
Cc1ccc(O)c(C)c1-c1cnc2[nH]c(-c3cnc(N4CCC(CCN5CCN(c6ccc(N7CCC(=O)NC7=O)cc6F)CC5)CC4)nc3)cc2c1C#N  inhibition (binding, HTRF; 0.15 nM): -1.08% and -2.61%
